Assay results pooled from the literature.
Each line is one published result; not all experiments were run side by side. Numbers after ± are the reported error. Values after ≈ are worked out from the molar mass of the structure shown.

With CN1CC[C@@H](NC(=O)Nc2ccc(C#N)cc2)C[C@@H]1c1nc2ccccc2[nH]1 the AUC(0-t), unbound was 835 ng·h/mL (normal hepatic function, plasma; oral, 100 mg single dose, fasted, geometric mean).
With Cc1cc(Nc2cc3ncccc3c(N[C@@H]3C[C@H]4CC[C@@H](C3)N4CCC#N)n2)n[nH]1 the tissue/plasma ratio was 2640 (Balb/c mouse, male, colon; oral, 10 mg/kg, Cmax based; baseline: colon over plasma).
The HPLC retention of CC(C)C[C@H](NC(=O)[C@H](CC(C)C)NC(=O)[C@@H](Cc1c[nH]c2ccccc12)NC(=O)[C@@H](NC(=O)[C@@H](Cc1c[nH]c2ccccc12)NC(=O)[C@@H](N)CCCCN)[C@@H](c1ccccc1)c1c[nH]c2ccccc12)C(N)=O is reported as 47.9 %B (RP-HPLC Kinetex Biphenyl; acetonitrile/water TFA gradient).
For CN[C@H](CC(C)C)C(=O)N[C@H]1C(=O)N[C@@H](CC(N)=O)C(=O)N[C@H]2C(=O)N[C@H]3C(=O)N[C@H](C(=O)N[C@H](C(=O)O)c4cc(O)cc(O)c4-c4cc3ccc4O)[C@H](O)c3ccc(c(Cl)c3)Oc3cc2cc(c3O[C@@H]2O[C@H](CO)[C@@H](O)[C@H](O)[C@H]2O[C@H]2C[C@](C)(N)[C@H](O)[C@H](C)O2)Oc2ccc(cc2Cl)[C@H]1O, “time above MIC” read 89% (microdialysis; pig, Danish Landrace, cancellous bone; intravenous, 1000 mg over 100 min, 450 min dosing interval, together with: 1.0 µg/mL MIC; baseline: dosing interval).
CCCOc1ccc([C@H]2CNC(=O)N2c2ccc3[nH]cnc3c2)cc1 gave an AUC(0-inf) of 1350 ng·h/mL (human, plasma; oral, 200 mg, single dose, fasted).
The AUC(0-24h) of CNC(=O)c1cc(Oc2ccc(NC(=O)Nc3ccc(Cl)c(C(F)(F)F)c3)c(F)c2)ccn1 is reported as 53600 ng·h/mL (metastatic colorectal cancer patients, plasma; oral, 120 mg once daily, 5 days, together with: esomeprazole 40 mg 3 h before).
Cc1[nH]c(=O)c(CNC(=O)c2ccc(C(F)(F)F)o2)c2c1CCCC2 has a kinetic solubility of 100 µg/mL (≈ 283 µM) (U-HPLC; 20% DMSO in water).
For CN(C)C(=N)N=C(N)N, “hepatocyte vacuolization score” read 0 (Sprague-Dawley rat, male, liver; oral, 1500 mg/kg, 24 h, single high dose; direction not given).
CN1CCN(C(=O)[C@@H](N)CSSC[C@H](N)C(=O)N2CCN(C)CC2)CC1.Cl.Cl.Cl.Cl gave a urine concentration of 7.59 ± 1.34 µM (Slc3a1 knockout male mice, urine; oral gavage, 29.3 µmol/kg daily, 1 week dosing, 4 h after last dose).
For O=C(O)/C=C/c1ccccc1, the measured concentration was 254 ± 5.72 ng/mL (rat plasma QC sample; 256 ng/mL nominal, 24 h, medium QC level autosampler stability).
The particle permeability of Cc1cccc(C)c1OCC(=O)N[C@@H](Cc1ccccc1)[C@@H](O)C[C@H](Cc1ccccc1)NC(=O)[C@H](C(C)C)N1CCCNC1=O is reported as 2.1 ± 0.1 ×10⁻⁶ cm/s (modified PAMPA Franz cell; phosphate buffer with HPMCAS; stock 12 mg/mL, 3 h, 25 °C, 454 nm particles, 300 rpm, together with: 3% BSA receiver).
CC(C)[C@H](NC(=O)[C@@H]1CCCN1C(=O)[C@H](CCCNC(=N)N)NC(=O)[C@H](CS)NC(=O)[C@H](Cc1c[nH]c2ccccc12)NC(=O)[C@H](CCCNC(=N)N)NC(=O)[C@@H](Cc1ccccc1)NC(=O)[C@H](Cc1c[nH]cn1)NC(=O)[C@H](CCC(=O)O)NC(=O)[C@H](CS)NC(=O)[C@H](CS)NC(=O)[C@H](CCCCN)NC(=O)[C@@H]1CC(=O)N[C@@H](CCCNC(=N)N)C(=O)N[C@@H]([C@@H](C)O)C(=O)N[C@@H](CC(=O)O)C(=O)N[C@H](Cc2ccc(O)cc2)C(=O)N1)C(N)=O [technetium-99m labelled] gave a tissue uptake of 0.64 ± 0.37 %ID/g (C57 mouse, female, B16/F1 melanoma, spleen; intravenous, 2 h, together with: NDP-MSH 10 µg co-injected).
Under “volume of distribution steady-state”, O=C(/C=C/c1cccc(S(=O)(=O)Nc2ccccc2)c1)NO is recorded as 25.7 L/m² (human mild liver dysfunction, plasma; intravenous, 400 mg/m^2, 30 min infusion, cycle 1 day -7).
CCCC[C@H](NC(C)=O)C(=O)N[C@H]1CCC(=O)NC[C@@H](C(=O)N[C@@H](Cc2c[nH]c3ccccc23)C(N)=O)NC(=O)[C@H](CCCNC(=N)N)NC(=O)[C@@H](Cc2ccccc2)NC(=O)[C@H](Cc2c[nH]cn2)NC1=O gave an AUC(0-inf) of 5160 ng·h/mL (male Sprague-Dawley rat, plasma; subcutaneous, 5 mg/kg, multiple doses, once daily).
COc1ccc(-c2cc(=O)c3c(O)c(OC)c(OC)c(OC)c3o2)cc1OC — result for “tissue to peel content ratio”: 0.234% (C57BL/6 mouse, male, testes; oral, 1% w/w in diet, 6 weeks, orange peel extract diet; baseline: content in orange peel).
C[C@@H](Oc1ccc(S(C)(=O)=O)cc1C(=O)N1C[C@@H]2C[C@]2(c2cc(C(F)(F)F)on2)C1)C(F)(F)F has an absolute bioavailability of 71.6% (human, fasted; oral, 25 mg, tablet vs IV microtracer).
With CCCSc1nc(N[C@@H]2C[C@H]2c2ccc(F)c(F)c2)c2nnn([C@@H]3C[C@H](OCCO)[C@@H](O)[C@H]3O)c2n1 the AUC was 11.9 µM·h (Wistar Han rat, male, plasma; oral, 20 mg/kg/day, day 1, carcinogenicity study).
Cc1cc(Nc2cc3ncccc3c(N[C@@H]3C[C@H]4CC[C@@H](C3)N4CCC#N)n2)n[nH]1 has a Cmax of 368 ng/mL (beagle dog, female, plasma; oral, 100 mg/kg/day, last day of 13 weeks).
COc1cc(CCC(C)=O)ccc1O gave a Tmax of 0.833 ± 0.167 h (obese male C57BL/6J mice, brain; oral, 200 mg/kg).
COc1cccc2c1C(=O)c1c(O)c3c(c(O)c1C2=O)C[C@@](O)(C(=O)CO)C[C@@H]3O[C@H]1C[C@H](N)[C@H](O)[C@H](C)O1 has a terminal half-life of 26 h (mouse, E0771 tumour-bearing, liver; intravenous, 92 µmol/kg).
For CC(C)=CCC[C@](C)(O[C@@H]1O[C@H](CO)[C@@H](O)[C@H](O)[C@H]1O)[C@H]1CC[C@]2(C)[C@@H]1[C@H](O)C[C@@H]1[C@@]3(C)CC[C@H](O)C(C)(C)[C@@H]3[C@@H](O[C@@H]3O[C@H](CO)[C@@H](O)[C@H](O)[C@H]3O)C[C@]12C, “post-preparative stability accuracy” read 96.2 ± 8.9% (rat, extracted tissue homogenate QC samples; 0.2 µg/mL, 24 h, 15 °C, autosampler).
CCCCCCOC(=O)NC(=N)c1ccc(NCc2nc3cc(C(=O)N(CCC(=O)OCC)c4ccccn4)ccc3n2C)cc1 — result for “change in QTcI”: -4.9 ms (healthy human; oral, 150 mg single dose, 1.5 to 3 h; baseline: baseline, time-matched).
COc1ccc(-c2cc(=O)c3c(OC)c(OC)c(OC)c(OC)c3o2)cc1 — result for “tissue to peel content ratio”: 0.042% (C57BL/6 mouse, male, plasma; oral, 1% w/w in diet, 6 weeks, orange peel extract diet; baseline: content in orange peel).
For O=C(c1cc(Cl)c(O)c(Cl)c1)N1CS(=O)(=O)c2ccccc21, the AUC(0-24h) was 10600 ± 1460 ng·h/mL (healthy Chinese adults, fasted, plasma; oral, 10 mg single dose).
CC(=O)N[C@@H](CCCCN)C(=O)N[C@@H](CCCCN)C(=O)N[C@@H](CCCNC(=N)N)C(=O)N[C@@H](Cc1ccc(O)cc1)C(=O)N[C@@H](CO)C(=O)N[C@@H](CCCNC(=N)N)C(=O)N[C@@H](CCC(=O)O)C(=O)N[C@@H](CCC(N)=O)C(=O)N[C@@H](CC(C)C)C(=O)N[C@@H](CC(C)C)C(=O)NCC(=O)N[C@@H](CC(C)C)C(N)=O has a helicity of 2.2% (CD spectroscopy; sodium phosphate buffer; 25 to 100 µM, pH 7.4, 25 °C).
O=C(O)[C@H]1/C(=C/CO)O[C@@H]2CC(=O)N21 gave a measured concentration of 291 ± 15 ng/mL (rat plasma; 300 ng/mL, three freeze-thaw cycles).
COc1cc(/C=C/C(=O)CC(=O)/C=C/c2ccc(O)c(OC)c2)ccc1O: “brain uptake ratio” 7.11 (I-125 label; C57BL/6J mouse, cerebellum; intranasal vs intraperitoneal, 10 µg/mouse IN, 100 µg/mouse IP, 8 h; baseline: intranasal over intraperitoneal).
